Measured values pooled from the literature.
Each numbered part is a random draw from the data of one study; scales do not carry over between parts. Positions count from the first letter of the parent shown.

Study 1 — technique: universal PBM; form: double-stranded DNA, one strand shown; sample: in vitro; concentration: not given; direction: higher = stronger binding
Target: Sal-like protein 4, full length isoform B (SALL4, Homo sapiens, UniProt Q9UJQ4-2, residues 1-616)
Notes: 8-mer, flanks averaged, mean of replicates
With `CAAATTTA` the E-score was 0.281.
The E-score of `GACGACAC` is reported as -0.0837.
With `AGAACATA` the E-score was 0.163.
`TCCCTCAA` gave an E-score of -0.0882.
For `ACTTGACG`, the E-score was -0.0303.
The E-score of `ACAACAAG` is reported as 0.101.
`CGGTTGAC` has an E-score of -0.211.
`CAATGAAA` has an E-score of 0.143.
`AACAGATG` has an E-score of 0.0736.
The E-score of `GTATGCAC` is reported as 0.0882.
`GGGAACAC` gave an E-score of -0.166.
`GGATCCCC` has an E-score of -0.38.
`AGAATAGG` gave an E-score of 0.111.
For `ATCCAAAC`, the E-score was 0.186.
`CTCCAACA` has an E-score of -0.0179.
`TGATTTAA` has an E-score of 0.29.
`CTCTTATC` has an E-score of 0.172.
With `TCTTTGCA` the E-score was 0.161.
With `GAGACGTA` the E-score was 0.00647.
The E-score of `AGGCCGGA` is reported as -0.338.
For `CACGTGGA`, the E-score was 0.0694.
With `GTGTATGA` the E-score was 0.233.
`GAACCACA` has an E-score of 0.091.
`CACTAACC` gave an E-score of -0.109.
For `TCAACCAA`, the E-score was 0.0239.

Study 2 — technique: DHFR PCA, deep sequencing; sample: yeast; added: (+)-ABA 1.4 µM; reference: wild-type fitted maximum; direction: higher = stronger binding
Target: ABI1, truncated, D143A, DHFR fusion (Arabidopsis thaliana)
Notes: methotrexate growth selection, single substitutions
Starting sequence: PYL1, truncated, DHFR fusion (Arabidopsis thaliana); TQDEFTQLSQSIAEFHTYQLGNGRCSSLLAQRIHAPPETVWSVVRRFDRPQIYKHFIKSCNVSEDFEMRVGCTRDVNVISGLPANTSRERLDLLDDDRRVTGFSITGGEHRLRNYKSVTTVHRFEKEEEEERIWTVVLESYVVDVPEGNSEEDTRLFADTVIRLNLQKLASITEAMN
Under “relative binding score”, `R163L` is recorded as -0.832%.
Under “relative binding score”, `R90F` is recorded as 4.77%.
`T120C`: “relative binding score” -2.55%.
For `R123D`, “relative binding score” read 36.4%.
For `F56T`, “relative binding score” read -4.93%.
Under “relative binding score”, `L29N` is recorded as 25.6%.
For `Y18W`, “relative binding score” read 39.6%.
For `V43M`, “relative binding score” read 14.9%.
Under “relative binding score”, `G81P` is recorded as 27.6%.
`S80G`: “relative binding score” 4.5%.
`R113S`: “relative binding score” 45.9%.
Under “relative binding score”, `A84F` is recorded as 73.2%.
`V161D`: “relative binding score” 14.3%.
`S117L`: “relative binding score” 5.83%.
For `T17H`, “relative binding score” read 10.4%.
`L138R` — result for “relative binding score”: -0.688%.

Study 3 — technique: RNA Bind-n-Seq; form: RNA; sample: in vitro; concentration: 200 nM; notes: whole 134-nt RNA, ends assumed; added: 150 mM KCl; reference: input library; direction: higher = stronger binding
Target: Fragile X messenger ribonucleoprotein 1, C-terminal low-complexity region (Fmr1, Mus musculus, UniProt P35922)
Constant ends, left off below: GGGAGUUCUACAGUCCGACGAUC … UGGAAUUCUCGGGUGUCAAGG
`CCUGUGCUACACAUCGUAUGUACCGAAUCGGGGUUUUUGGGGUUUUUGGGGAAAAAGGGGAAAGUAUUAUGUUACGCCGUUCGGAUCUGC` gave a log2 enrichment of 0.253.
`GCAGGAAGUAAAAACAAAUGGAAAUGCUUCGGAUAGUGGCAGAGGUGGGGGUUGCUAAGGAAAGGGUGGGAUGGGAGUGGGUAAAGAGUU` gave a log2 enrichment of 0.312.
The log2 enrichment of `CAAGUCCUGUGCUACACAUCGUAUGUACCGAAUCGGAAAAAAAGGUUUGGUUUGGAAAGUAUUAUGUUACGCCGUUCGGAUCUGCACUUC` is reported as -0.864.
The log2 enrichment of `ACCAUGCAGGUGGGCAUCUUUGGGAAGUGGGGCAAGGGGGGGAUAGGGAGGGGGGUAACACUUUGGCAACAGGUGGUCCCAGGUCGUUUC` is reported as 0.617.
For `UGGCCCUGGUGGCAUGCGGGGAGGAAGAGGUGGCCUCAUGGAUCGUGGGGGUCCCGGUGGAAUGUUCAGAGGUGGCCGUGGUGGAGACAG`, the log2 enrichment was 0.184.
`CUCAAGUCCUGUGCUACACAUCGUAUGUACCGAAUCGGUUUGGAGGAAAAAGGAAAGUAUUAUGUUACGCCGUUCGGAUCUGCACUUCCA` gave a log2 enrichment of -0.0584.
For `UCCUGUGCUACACAUCGUAUGUACCGAAUCGGGGAAAGGGGAAAAAGGGGUUUUUGGGGAAAGUAUUAUGUUACGCCGUUCGGAUCUGCA`, the log2 enrichment was 0.609.
`GUCCUGUGCUACACAUCGUAUGUACCGAAUCGGCCCCCGGGCCCCCGGGCCCCCGGGGAAAGUAUUAUGUUACGCCGUUCGGAUCUGCAC` gave a log2 enrichment of -0.53.
With `GUCCUGUGCUACACAUCGUAUGUACCGAAUCGGGCCCCCGGGGCCCCCGGCCCCCGGGGAAAGUAUUAUGUUACGCCGUUCGGAUCUGCA` the log2 enrichment was -0.92.

Study 4 — target: CCNE2, cyclin fold, Cln2 fusion (human); technique: yeast growth competition, sequencing; sample: yeast; notes: strong parent motif; reference: not given; direction: higher = stronger binding
Starting sequence: WEE1 docking peptide (human); HKTFRKLRLFDTP
Under “normalised enrichment score”, `F4G` is recorded as 0.552.
For `L9S`, “normalised enrichment score” read 0.823.
Under “normalised enrichment score”, `K6E` is recorded as 0.691.
Under “normalised enrichment score”, `K6G` is recorded as 1.06.
Under “normalised enrichment score”, `T12G` is recorded as 1.4.
Under “normalised enrichment score”, `P13R` is recorded as 0.511.
Under “normalised enrichment score”, `D11Y` is recorded as 0.532.
`F10T` — result for “normalised enrichment score”: 0.541.
`T3M`: “normalised enrichment score” 1.03.
For `T12W`, “normalised enrichment score” read 1.22.
Under “normalised enrichment score”, `R5S` is recorded as 0.583.
For `P13Q`, “normalised enrichment score” read 0.212.
`R8H`: “normalised enrichment score” 0.447.
`K6D`: “normalised enrichment score” 1.03.
`R5V` — result for “normalised enrichment score”: 0.419.
`R8V`: “normalised enrichment score” 0.783.
`T12Y` — result for “normalised enrichment score”: 0.815.
For `F10H`, “normalised enrichment score” read 0.65.
`T12L`: “normalised enrichment score” 0.665.
`T12N` — result for “normalised enrichment score”: 1.43.
`R5K L9F` — result for “normalised enrichment score”: -0.0876.
Under “normalised enrichment score”, `L7N` is recorded as 0.367.
`H1P` — result for “normalised enrichment score”: 0.926.
Under “normalised enrichment score”, `K6I` is recorded as 1.27.
Under “normalised enrichment score”, `R8M` is recorded as 0.656.

Excerpt of the above (study 2):
Under “relative binding score”, `L29N` is recorded as 25.6%.
For `Y18W`, “relative binding score” read 39.6%.
For `V43M`, “relative binding score” read 14.9%.
Under “relative binding score”, `G81P` is recorded as 27.6%.
`S80G`: “relative binding score” 4.5%.
`R113S`: “relative binding score” 45.9%.
Under “relative binding score”, `A84F` is recorded as 73.2%.
`V161D`: “relative binding score” 14.3%.
`S117L`: “relative binding score” 5.83%.
For `T17H`, “relative binding score” read 10.4%.
`L138R` — result for “relative binding score”: -0.688%.
